Measurements from different studies.
Numbered parts are unrelated; each lists some results of a single study.
Chain of UniProt P08581 (whole entry, looked up): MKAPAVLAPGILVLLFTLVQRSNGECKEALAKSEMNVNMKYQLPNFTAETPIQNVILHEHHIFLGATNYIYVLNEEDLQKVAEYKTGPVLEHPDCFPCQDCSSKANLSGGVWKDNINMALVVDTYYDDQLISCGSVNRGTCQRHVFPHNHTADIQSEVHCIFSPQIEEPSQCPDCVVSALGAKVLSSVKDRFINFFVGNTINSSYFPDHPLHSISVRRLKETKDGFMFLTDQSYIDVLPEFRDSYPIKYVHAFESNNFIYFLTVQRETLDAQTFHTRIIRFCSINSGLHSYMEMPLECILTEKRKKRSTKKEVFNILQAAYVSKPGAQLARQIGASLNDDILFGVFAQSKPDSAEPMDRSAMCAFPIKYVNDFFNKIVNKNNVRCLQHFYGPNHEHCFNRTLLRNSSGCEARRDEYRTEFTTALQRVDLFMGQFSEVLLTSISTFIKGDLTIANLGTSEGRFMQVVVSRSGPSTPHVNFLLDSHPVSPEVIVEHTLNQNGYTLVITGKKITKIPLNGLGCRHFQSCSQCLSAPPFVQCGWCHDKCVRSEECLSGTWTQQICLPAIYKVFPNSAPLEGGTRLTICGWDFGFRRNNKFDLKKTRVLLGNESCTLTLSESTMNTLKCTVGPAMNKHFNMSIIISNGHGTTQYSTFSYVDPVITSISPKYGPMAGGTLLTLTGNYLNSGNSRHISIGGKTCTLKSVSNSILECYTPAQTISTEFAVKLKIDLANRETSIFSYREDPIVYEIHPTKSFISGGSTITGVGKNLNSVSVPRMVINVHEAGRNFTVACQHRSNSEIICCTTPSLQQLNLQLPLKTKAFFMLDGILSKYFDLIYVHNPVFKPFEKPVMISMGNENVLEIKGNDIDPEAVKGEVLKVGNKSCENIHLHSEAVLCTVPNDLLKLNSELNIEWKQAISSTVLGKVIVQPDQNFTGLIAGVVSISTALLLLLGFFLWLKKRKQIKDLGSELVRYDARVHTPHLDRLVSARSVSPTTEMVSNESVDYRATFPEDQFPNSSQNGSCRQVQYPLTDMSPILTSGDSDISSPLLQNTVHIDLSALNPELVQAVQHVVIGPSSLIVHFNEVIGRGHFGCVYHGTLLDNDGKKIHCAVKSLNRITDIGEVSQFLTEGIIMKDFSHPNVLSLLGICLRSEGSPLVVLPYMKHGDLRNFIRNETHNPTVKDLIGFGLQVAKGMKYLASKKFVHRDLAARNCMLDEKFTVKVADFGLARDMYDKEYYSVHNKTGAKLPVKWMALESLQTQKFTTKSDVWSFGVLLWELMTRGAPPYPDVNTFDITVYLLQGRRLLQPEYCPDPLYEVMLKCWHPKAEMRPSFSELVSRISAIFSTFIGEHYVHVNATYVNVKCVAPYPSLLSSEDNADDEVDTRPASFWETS
Chain of UniProt Q9Y5S2 (whole entry, looked up): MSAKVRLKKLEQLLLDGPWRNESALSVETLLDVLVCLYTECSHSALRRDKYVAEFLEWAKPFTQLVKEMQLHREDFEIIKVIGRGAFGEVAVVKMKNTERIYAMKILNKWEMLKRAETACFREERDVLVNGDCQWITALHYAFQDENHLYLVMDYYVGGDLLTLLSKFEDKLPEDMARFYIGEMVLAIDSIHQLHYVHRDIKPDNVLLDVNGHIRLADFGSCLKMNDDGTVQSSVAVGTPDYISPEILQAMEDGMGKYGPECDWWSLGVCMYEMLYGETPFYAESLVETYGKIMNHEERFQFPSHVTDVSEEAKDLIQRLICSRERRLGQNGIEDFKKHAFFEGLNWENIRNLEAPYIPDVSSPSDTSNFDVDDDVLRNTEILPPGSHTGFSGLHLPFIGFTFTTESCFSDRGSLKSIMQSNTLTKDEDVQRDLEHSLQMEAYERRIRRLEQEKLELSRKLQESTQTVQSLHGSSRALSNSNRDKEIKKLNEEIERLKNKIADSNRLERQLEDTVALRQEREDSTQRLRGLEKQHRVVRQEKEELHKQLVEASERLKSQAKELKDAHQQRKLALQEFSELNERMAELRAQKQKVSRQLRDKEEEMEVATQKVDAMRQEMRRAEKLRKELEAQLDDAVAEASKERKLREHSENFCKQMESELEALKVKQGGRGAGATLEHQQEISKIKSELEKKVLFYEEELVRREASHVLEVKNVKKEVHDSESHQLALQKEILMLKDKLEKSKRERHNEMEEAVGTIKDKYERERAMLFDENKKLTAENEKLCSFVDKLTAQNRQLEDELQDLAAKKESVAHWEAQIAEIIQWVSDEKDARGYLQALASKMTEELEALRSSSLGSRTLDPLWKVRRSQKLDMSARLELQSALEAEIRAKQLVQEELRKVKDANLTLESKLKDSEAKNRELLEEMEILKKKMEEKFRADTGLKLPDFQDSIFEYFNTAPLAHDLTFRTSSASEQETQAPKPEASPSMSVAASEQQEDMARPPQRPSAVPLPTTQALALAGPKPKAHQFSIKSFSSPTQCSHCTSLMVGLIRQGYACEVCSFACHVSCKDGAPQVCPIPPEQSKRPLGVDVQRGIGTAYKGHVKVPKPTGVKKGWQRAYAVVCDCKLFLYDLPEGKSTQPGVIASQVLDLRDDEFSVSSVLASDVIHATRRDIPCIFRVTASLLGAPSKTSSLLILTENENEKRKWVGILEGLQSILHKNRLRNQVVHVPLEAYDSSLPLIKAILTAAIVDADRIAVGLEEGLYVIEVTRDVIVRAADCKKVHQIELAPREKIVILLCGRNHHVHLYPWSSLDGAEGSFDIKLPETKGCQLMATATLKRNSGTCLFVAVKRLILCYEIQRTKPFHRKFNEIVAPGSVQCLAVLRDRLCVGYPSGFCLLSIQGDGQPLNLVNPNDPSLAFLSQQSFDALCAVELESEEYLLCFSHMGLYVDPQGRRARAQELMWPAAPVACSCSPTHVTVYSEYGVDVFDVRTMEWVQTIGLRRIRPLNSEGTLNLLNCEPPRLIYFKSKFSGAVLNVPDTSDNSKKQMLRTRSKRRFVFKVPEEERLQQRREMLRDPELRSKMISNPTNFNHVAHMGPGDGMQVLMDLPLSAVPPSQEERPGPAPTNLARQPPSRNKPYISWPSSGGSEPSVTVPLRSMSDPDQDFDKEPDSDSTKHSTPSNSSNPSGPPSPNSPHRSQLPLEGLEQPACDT
Chain of UniProt P0C264 (whole entry, looked up): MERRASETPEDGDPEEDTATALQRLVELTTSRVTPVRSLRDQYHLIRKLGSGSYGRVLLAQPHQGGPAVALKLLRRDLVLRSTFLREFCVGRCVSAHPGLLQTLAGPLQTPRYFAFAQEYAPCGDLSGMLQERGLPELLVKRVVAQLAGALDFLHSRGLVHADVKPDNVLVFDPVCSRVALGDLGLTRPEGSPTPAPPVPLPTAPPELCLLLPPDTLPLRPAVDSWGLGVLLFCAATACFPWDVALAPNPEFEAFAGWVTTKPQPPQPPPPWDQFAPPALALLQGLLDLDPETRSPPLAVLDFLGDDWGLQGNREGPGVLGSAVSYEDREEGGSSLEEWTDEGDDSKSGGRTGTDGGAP
Chain of UniProt Q9H4B4 (whole entry, looked up): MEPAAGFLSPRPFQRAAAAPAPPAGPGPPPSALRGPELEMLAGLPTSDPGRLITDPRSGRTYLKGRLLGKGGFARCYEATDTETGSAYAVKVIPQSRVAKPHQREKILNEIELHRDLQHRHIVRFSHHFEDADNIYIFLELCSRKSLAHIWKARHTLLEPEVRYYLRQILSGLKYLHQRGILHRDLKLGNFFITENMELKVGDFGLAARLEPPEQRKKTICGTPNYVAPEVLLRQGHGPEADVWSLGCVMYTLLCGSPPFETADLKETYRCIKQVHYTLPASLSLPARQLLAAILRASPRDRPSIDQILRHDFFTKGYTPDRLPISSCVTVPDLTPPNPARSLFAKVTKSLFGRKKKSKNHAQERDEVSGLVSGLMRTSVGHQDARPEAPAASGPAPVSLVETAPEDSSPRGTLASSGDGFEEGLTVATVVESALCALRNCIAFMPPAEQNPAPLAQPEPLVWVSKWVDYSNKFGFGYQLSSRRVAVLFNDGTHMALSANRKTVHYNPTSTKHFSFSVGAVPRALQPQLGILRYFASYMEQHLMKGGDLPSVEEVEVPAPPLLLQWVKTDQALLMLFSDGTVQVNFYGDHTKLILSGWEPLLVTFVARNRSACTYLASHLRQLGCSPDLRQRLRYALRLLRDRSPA
Chain of UniProt Q86UE8 (whole entry, looked up): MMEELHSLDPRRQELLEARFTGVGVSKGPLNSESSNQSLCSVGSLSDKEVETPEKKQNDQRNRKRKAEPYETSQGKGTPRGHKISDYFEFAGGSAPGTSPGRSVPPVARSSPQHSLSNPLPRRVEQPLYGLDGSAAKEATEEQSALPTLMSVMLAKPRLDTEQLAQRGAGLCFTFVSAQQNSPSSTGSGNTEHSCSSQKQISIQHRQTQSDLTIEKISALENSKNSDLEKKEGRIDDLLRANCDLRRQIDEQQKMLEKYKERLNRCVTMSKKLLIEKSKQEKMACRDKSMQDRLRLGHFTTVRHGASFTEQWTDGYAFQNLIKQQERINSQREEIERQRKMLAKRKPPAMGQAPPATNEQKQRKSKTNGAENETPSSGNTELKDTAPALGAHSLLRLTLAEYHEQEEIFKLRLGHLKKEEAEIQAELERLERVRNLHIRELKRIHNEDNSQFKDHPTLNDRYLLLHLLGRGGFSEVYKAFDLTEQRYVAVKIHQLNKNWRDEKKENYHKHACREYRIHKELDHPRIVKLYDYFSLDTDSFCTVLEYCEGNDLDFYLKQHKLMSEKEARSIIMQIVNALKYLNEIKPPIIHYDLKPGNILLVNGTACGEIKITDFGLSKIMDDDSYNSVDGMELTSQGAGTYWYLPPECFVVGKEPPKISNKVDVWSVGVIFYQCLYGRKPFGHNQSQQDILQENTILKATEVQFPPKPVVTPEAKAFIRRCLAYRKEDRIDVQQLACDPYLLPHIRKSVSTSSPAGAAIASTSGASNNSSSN

Sample 1
Cell line: A-375
Concentration: 100 µM
Time: 36 h
`CC(C(=O)O)c1ccc(-c2ccccc2)c(F)c1` (stereo not drawn) has a viability of 117%.
With `C[C@]12CC[C@@H]3c4ccc(OC(=O)c5ccccc5)cc4CC[C@H]3[C@@H]1CC[C@@H]2O` the viability was -3.38%.
`CC(=O)Nc1ncc([N+](=O)[O-])s1` gave a viability of 99.9%.
The viability of `C=CC(N)CCC(=O)O` (stereo not drawn) is reported as 101%.
For `NC(=O)OCC(COC(N)=O)c1ccccc1`, the viability was 116%.
`CCOC(=O)CCC(=O)O[C@H]1[C@H](O[C@@H]2[C@@H](C)[C@H](O[C@H]3C[C@@](C)(OC)[C@@H](O)[C@H](C)O3)[C@@H](C)C(=O)O[C@H](CC)[C@@](C)(O)[C@H](O)[C@@H](C)C(=O)[C@H](C)C[C@@]2(C)O)O[C@H](C)C[C@@H]1N(C)C` gave a viability of 78.3%.
For `Nc1nc2ncc(CNc3ccc(C(=O)N[C@@H](CCC(=O)O)C(=O)O)cc3)nc2c(=O)[nH]1`, the viability was 110%.

Sample 2
SMILES: NC(=O)c1ccc(N(C(N)=O)c2c(F)cccc2F)nc1-c1ccc(F)cc1F
Observed: enzyme activity
Mode: inhibitor
Concentration: 0.5 µM
Relative to: control
For Serine/threonine-protein kinase PAK 3 (PAK3, Homo sapiens, UniProt O75914): remaining activity read 98.3%.
Cyclin-dependent kinase 9, with cyclin K (CDK9, Homo sapiens, UniProt P50750) — remaining activity: 106%.
It gave 100% for remaining activity (Discoidin domain-containing receptor 2 (DDR2, Homo sapiens, UniProt Q16832)).
It gave 95.7% for remaining activity (Serine/threonine-protein kinase tousled-like 2 (TLK2, Homo sapiens, UniProt Q86UE8)).
The remaining activity was 89.4% (Hepatocyte growth factor receptor (MET, Homo sapiens, UniProt P08581)).
It gave 98.1% for remaining activity (cGMP-dependent protein kinase 2 (PRKG2, Homo sapiens, UniProt Q13237)).
Mitogen-activated protein kinase 1 (MAPK1, Homo sapiens, UniProt P28482) — remaining activity: 85.7%.
It gave 102% for remaining activity (MAP/microtubule affinity-regulating kinase 4 (MARK4, Homo sapiens, UniProt Q96L34)).
For Dual specificity protein kinase CLK4 (CLK4, Homo sapiens, UniProt Q9HAZ1): remaining activity read 114%.
Mitogen-activated protein kinase 11 (MAPK11, Homo sapiens, UniProt Q15759) — remaining activity: 22.3%.
It gave 96% for remaining activity (Serine/threonine-protein kinase Nek3 (NEK3, Homo sapiens, UniProt P51956)).
The remaining activity was 96.5% (Vascular endothelial growth factor receptor 2 (KDR, Homo sapiens, UniProt P35968)).
The remaining activity was 96.5% (Serine/threonine-protein kinase MRCK beta (CDC42BPB, Homo sapiens, UniProt Q9Y5S2)).
For Serine/threonine-protein kinase PLK3 (PLK3, Homo sapiens, UniProt Q9H4B4): remaining activity read 94.7%.
RAC-beta serine/threonine-protein kinase (AKT2, Homo sapiens, UniProt P31751) — remaining activity: 118%.

Sample 3
SMILES: CCC(=O)N[C@@H]1CC[C@H](C(=O)N(C)c2ccc(-c3nc4ccccc4o3)cc2)C1
Method: competition with immobilised ligand
Concentration: 1 µM
It gave 77% for remaining binding (Phosphatidylinositol 4,5-bisphosphate 3-kinase catalytic subunit alpha isoform (PIK3CA, Homo sapiens, UniProt P42336, E545A); cell-free assay).
For 3-phosphoinositide-dependent protein kinase 1 (PDPK1, Homo sapiens, UniProt O15530); cell-free assay: remaining binding read 100%.
For Uncharacterized serine/threonine-protein kinase SBK3 (SBK3, Homo sapiens, UniProt P0C264); cell-free assay: remaining binding read 88%.
Mast/stem cell growth factor receptor Kit (KIT, Homo sapiens, UniProt P10721, T670I/V559D); cell-free assay — remaining binding: 93%.
For Mitogen-activated protein kinase kinase kinase 1 (MAP3K1, Homo sapiens, UniProt Q13233); cell-free assay: remaining binding read 74%.
The remaining binding was 77% (Tyrosine-protein kinase TXK (TXK, Homo sapiens, UniProt P42681); binding).
For cAMP-dependent protein kinase catalytic subunit alpha (PRKACA, Homo sapiens, UniProt P17612); cell-free assay: remaining binding read 100%.

Sample 4
Host: mouse
Matrix: microsomes or S9
Concentration: 2 µM
Time: 0.5 h
For `CN(Cc1cc(Br)cn1C)c1ncccn1`, the remaining compound was greater than 100%.
With `COc1ccc(OCc2nc3c4c(-c5ccccc5)c(-c5ccccc5)n(CCO)c4ncn3n2)cc1` the remaining compound was 1.29%.
With `O=C(O)c1ccc(-c2nc3cc(Cl)c(Cl)cc3[nH]2)cc1` the remaining compound was 42.2%.
`Cc1cc(N2CCCCC2)nc(N2CCN(S(=O)(=O)c3ccc4cccc5c4c3CC5)CC2)n1` has a remaining compound of 0.676%.
`CC1(C)CON(Cc2cc(-c3ccccc3)sc2Cl)C1=O` has a remaining compound of 16.2%.
For `CC(=O)Nc1cccc(C2CCN(CCCn3nc(S(=O)(=O)c4ccc(C)cc4)c4ccccc4c3=O)CC2)c1`, the remaining compound was 2.32%.
`O=C(Cn1ncccc1=O)N1Cc2cnc(N3CCOCC3)nc2C1` has a remaining compound of 91.8%.

Excerpt of the above (sample 2):
For Serine/threonine-protein kinase PLK3 (PLK3, Homo sapiens, UniProt Q9H4B4): remaining activity read 94.7%.
The remaining activity was 96.5% (Vascular endothelial growth factor receptor 2 (KDR, Homo sapiens, UniProt P35968)).
